# Published values of several laboratories.
# Every numbered part comes from another study and shows a few of its results, in no order.

# Sample 1
# Target: Histone acetyltransferase KAT6A, winged helix 1, GST fusion (KAT6A, Homo sapiens, UniProt Q92794, residues 1-85)
# Method: protein binding microarray
# Molecule type: double-stranded DNA, one strand shown
# Medium: in vitro
# Concentration: not given
# Notes: 8-mer, flanks averaged, mean of 2 arrays, mostly near background
# Baseline: not given
# Reading: higher = stronger binding
# Residues (chain): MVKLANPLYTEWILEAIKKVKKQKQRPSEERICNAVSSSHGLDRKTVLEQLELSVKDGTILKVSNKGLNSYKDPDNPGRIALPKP
Strand,E-score
CCTTGCCA,-0.157
CAGCAAAA,-0.109
CGACACAA,-0.169
CGACGAAC,0.153
ATTGCCCC,-0.173
TACAAATA,-0.121
AAACACCG,0.283
AAGTGCCG,0.194
GCCGCGCC,0.439
AGTGCCAC,-0.226
CTTTCACC,-0.0175
ATTTCGAG,-0.16
AACTTCCG,0.109

# Sample 2
# Target: Ras GTPase-activating protein-binding protein 1, C-terminal RGG region (G3BP1, Homo sapiens, UniProt Q13283)
# Sequence of UniProt Q13283 (whole entry, looked up): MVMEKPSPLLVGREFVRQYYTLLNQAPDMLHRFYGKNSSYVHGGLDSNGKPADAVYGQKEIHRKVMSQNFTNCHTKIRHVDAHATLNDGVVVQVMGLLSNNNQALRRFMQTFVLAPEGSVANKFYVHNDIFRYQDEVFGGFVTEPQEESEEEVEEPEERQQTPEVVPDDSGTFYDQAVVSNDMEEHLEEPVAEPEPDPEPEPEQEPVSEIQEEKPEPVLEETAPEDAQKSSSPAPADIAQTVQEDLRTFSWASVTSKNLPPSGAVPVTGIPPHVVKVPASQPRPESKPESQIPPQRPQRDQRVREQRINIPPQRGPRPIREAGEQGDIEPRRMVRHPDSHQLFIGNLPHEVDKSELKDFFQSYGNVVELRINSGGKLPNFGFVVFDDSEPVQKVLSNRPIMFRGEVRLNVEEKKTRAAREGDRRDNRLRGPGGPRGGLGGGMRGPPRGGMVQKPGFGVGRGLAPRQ
# Method: RNA Bind-n-Seq
# Molecule type: RNA
# Medium: in vitro
# Concentration: 1 µM
# Notes: whole 134-nt RNA, ends assumed
# Together with: 150 mM KCl
# Baseline: input library
# Reading: higher = stronger binding
Strand,log2 enrichment
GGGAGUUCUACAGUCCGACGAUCGUCCUGUGCUACACAUCGUAUGUACCGAAUCGGGAAAAAAAGGGUUUGGGAAAAAGGGAAAGUAUUAUGUUACGCCGUUCGGAUCUGCACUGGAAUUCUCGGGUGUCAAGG,-0.585
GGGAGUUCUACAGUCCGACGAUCCUGUGCUACACAUCGUAUGUACCGAAUCGGGGUUUUUGGGGUUUUUUUGGGGUUUUUGGGGAAAGUAUUAUGUUACGCCGUUCGGAUCUGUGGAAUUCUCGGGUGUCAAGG,0.0583
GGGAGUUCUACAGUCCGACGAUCAAGUCCUGUGCUACACAUCGUAUGUACCGAAUCGGGGUGGGGAGGGGAAAAAGGGGAAAGUAUUAUGUUACGCCGUUCGGAUCUGCACUUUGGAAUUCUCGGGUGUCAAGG,1.87
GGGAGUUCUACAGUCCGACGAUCCAAGUCCUGUGCUACACAUCGUAUGUACCGAAUCGGGAGGGAAAAAGGGUUUGGGAAAGUAUUAUGUUACGCCGUUCGGAUCUGCACUUCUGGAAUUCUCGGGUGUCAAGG,1.89
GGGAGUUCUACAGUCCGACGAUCCUCAAGUCCUGUGCUACACAUCGUAUGUACCGAAUCGGUUUGGUUUGGUUUGGGAAAGUAUUAUGUUACGCCGUUCGGAUCUGCACUUCCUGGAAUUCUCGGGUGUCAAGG,-1.38

# Sample 3
# Target: Sal-like protein 4, full length isoform B (SALL4, Homo sapiens, UniProt Q9UJQ4-2, residues 1-616)
# Method: universal PBM
# Molecule type: double-stranded DNA, one strand shown
# Medium: in vitro
# Concentration: not given
# Notes: 8-mer, flanks averaged, mean of replicates
# Reading: higher = stronger binding
Strand,E-score
GTACGGCA,-0.104
TATTTTCA,0.313
TGAGACAA,-0.0386
TACACAAA,0.337
CGGCCTGA,-0.273
GAAACCTA,-0.00039
ACTGCATG,0.0208

# Further values, each from its own experiment
Molecule,target,test,test system,conditions,scale,endpoint,value
"PhoQ, residues 284 288 289 292 302 303 AAQSYM","PhoP, residues 12 14 15 18 19 IQFRS (Escherichia coli, UniProt P23836)","Sort-seq, measured: YFP reporter",E. coli,"PhoQ-PhoP variant library, together with: 10 µM Mg2+","baseline: high Mg2+ state, higher = stronger signaling",fold induction,20.8
